Measured values gathered from unrelated publications.
Several values in a cell are separate wells, animals, samples, runs or records. ± marks the error that the study gave.
Chain of UniProt Q9UQB9 (whole entry, looked up): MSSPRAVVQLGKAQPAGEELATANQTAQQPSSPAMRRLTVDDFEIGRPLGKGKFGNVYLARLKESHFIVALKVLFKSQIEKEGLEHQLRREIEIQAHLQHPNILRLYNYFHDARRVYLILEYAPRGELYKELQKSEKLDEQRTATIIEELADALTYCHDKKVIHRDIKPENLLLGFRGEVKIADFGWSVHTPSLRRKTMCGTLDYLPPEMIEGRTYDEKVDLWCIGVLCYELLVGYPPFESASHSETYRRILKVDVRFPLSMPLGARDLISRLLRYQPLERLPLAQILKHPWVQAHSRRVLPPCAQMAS
Chain of UniProt Q9Y572 (whole entry, looked up): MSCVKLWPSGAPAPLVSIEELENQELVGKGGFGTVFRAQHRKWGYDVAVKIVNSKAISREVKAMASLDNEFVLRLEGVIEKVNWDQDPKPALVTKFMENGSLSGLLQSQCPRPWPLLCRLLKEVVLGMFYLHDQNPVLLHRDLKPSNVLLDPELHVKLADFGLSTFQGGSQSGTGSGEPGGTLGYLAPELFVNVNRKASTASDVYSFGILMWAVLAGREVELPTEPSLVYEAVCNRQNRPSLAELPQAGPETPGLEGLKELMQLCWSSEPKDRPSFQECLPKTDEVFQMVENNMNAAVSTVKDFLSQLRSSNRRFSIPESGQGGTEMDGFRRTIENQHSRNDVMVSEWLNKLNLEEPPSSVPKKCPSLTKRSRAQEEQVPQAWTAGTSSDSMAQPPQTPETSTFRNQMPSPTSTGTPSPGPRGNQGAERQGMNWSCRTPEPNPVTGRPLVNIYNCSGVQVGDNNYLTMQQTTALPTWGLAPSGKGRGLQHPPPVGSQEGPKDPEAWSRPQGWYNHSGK

| Structure (SMILES) | target or system | test | system | conditions | scale | quantity | result |
| --- | --- | --- | --- | --- | --- | --- | --- |
| COc1ccccc1-c1n[nH]c2nc(NC3CCN(C(=O)Cc4ccc(F)cc4F)CC3)ncc12 |  | bead binding, competition bead pull-down, refers to: LINJ.28.2610 | Leishmania donovani extract | 10 µM | relative to: vehicle | relative abundance | 1.13 |
| O=C(O)c1ccc(-c2nc(-c3ccccc3Cl)c3sccn23)cc1 |  |  | C57BL/6 mice | dose not given, days 10 and 11 pooled, basal hematopoiesis |  | platelet count change | 88.9% and 116% and 81.6% and 89.8% and 97% and 120% and 110% |
| Cc1cc(Oc2nc(N3CC[C@@H](c4ccncc4)C3)ncc2F)[nH]n1 | Mycobacterium tuberculosis | OD | H37Rv PurF CRISPRi knockdown | 3.1e-05 µM, added: anhydrotetracycline low |  | normalised growth | 96% and 97% |
| Cc1ccc(S(=O)(=O)N2CC2C(=O)N(C)C)cc1 (stereo not drawn) |  |  | mouse, Lewis lung carcinoma | intraperitoneal, 170 mg/kg, 16 doses, day 14 |  | tumour growth inhibition | 41% |
| Cc1ccc(C2=CC(C)(C)Oc3ccc(-c4ccc(-c5ccc(C(=O)O)cc5)[nH]4)cc32)cc1 |  | histology | CD1 mouse male, testis | 10 mg/kg/day for 4 weeks, 1 day after end of dosing |  | spermatids failing translocation | 15.9% |
| CC(C)CC(C(=O)N1CC2(CC1C#N)C(=O)Nc1ccccc12)N(C)C(=O)c1cc2c(F)cc(F)c(F)c2[nH]1 (stereo not drawn) | Replicase polyprotein 1ab, main protease (rep, Porcine epidemic diarrhea virus, UniProt P0C6Y4) | protease activity, inhibitor |  | 3.16 µM |  | remaining activity | 10.1% |
| CC[C@H](C)[C@H](NC(=O)[C@H](CO)NC(=O)[C@H](Cc1ccc(O)cc1)NC(=O)[C@H](Cc1ccc(O)cc1)NC(=O)[C@H](CC(N)=O)NC(=O)CNC(=O)[C@H](CO)NC(=O)[C@H](Cc1ccc(O)cc1)NC(=O)[C@H](CO)NC(=O)[C@H](CO)NC(=O)[C@H](CC(N)=O)NC(=O)COCCOCCNC(=O)CN1CCN(CC(=O)O)CCN(CC(=O)O)CCN(CC(=O)O)CC1)C(=O)N[C@@H](CC(C)C)C(N)=O [copper-64 labelled] |  | dynamic PET | KPC mouse, pancreatic cancer model, blood | intravenous, 0.1 min, 49 days after tamoxifen |  | tumour uptake | 2.95 %ID/mL |
| CC(C)(C)C(=O)OCOP(=O)(OCOC(=O)C(C)(C)C)C1CCCN(O)C1=O (stereo not drawn) | HOP-62 |  |  |  |  | log TGI | -5.18 log M |
| Cc1cc(C(=O)Nc2nc3cccc(C)c3n2[C@H]2CCCCN(C(=O)/C=C/CN(C)C)C2)ccn1 | Trypanosoma brucei brucei |  | 2T1 CLK1 overexpressing | 10 µM, DMSO pretreated | relative to: maximum | survival | 9.4% and 7.76% and 5.63% and 9.14% |
| O=C1NC2(CC2)COc2ncc(F)cc2[C@H]2COCCN2c2ccn3ncc1c3n2 |  |  | Sprague-Dawley rat, male, serum | oral, 5 mg/kg/day, end of recovery, 4-week subacute toxicity |  | serum urea | 3.63 ± 0.51 mmol/L |
| CS(C)(=O)=Nc1ccc(-c2ccc(-c3nc4cc(O[C@@H]5CO[C@H]6[C@@H]5OC[C@H]6O)[nH]c4cc3F)cc2)cc1 | Aurora kinase C (AURKC, Homo sapiens, UniProt Q9UQB9) | enzyme activity, inhibitor |  | 10 µM |  | inhibition | 3% |
| COC(=O)[C@@H](NC(=O)c1nn(Cc2ccc(F)cc2)c2cc(OCCCCNC(=N)N)ccc12)C(C)(C)C |  | mechanical allodynia | mouse SNI neuropathic pain model | intraperitoneal, dose not given |  | time to peak effect | 1 h |
| CC(C)C[C@H](NC(=O)[C@H](CC(=O)O)NC(=O)CNC(=O)[C@@H](N)CCCNC(=N)N)C(=O)N[C@@H](C)C(=O)N[C@H](C(=O)N[C@@H](CC(C)C)C(=O)N[C@@H](CCCNC(=N)N)C(=O)N[C@@H](CCC(N)=O)C(=O)N[C@@H](CC(C)C)C(=O)N[C@@H](C)C(=O)N[C@@H](CCC(N)=O)C(=O)N[C@@H](CCC(=O)O)C(=O)N[C@@H](CC(=O)O)C(=O)NCC(=O)N[C@H](C(=O)N[C@H](C(=O)NCC(=O)N[C@H](C(=O)N[C@@H](CCCNC(=N)N)C(=O)NCCOCCOCCOCCOCCOCCOCCOCCOCCOCCOCCOCCOCCC(=O)N[C@@H](CS)C(N)=O)C(C)C)C(C)C)C(C)C)[C@@H](C)O |  | phage binding | NSCLC cell line panel | selectivity at least 20 |  | number of cell lines | 18 |
| COC(=O)[C@H](CC(C)C)NC(=O)[C@@H]1CCCN1C(=O)[C@@H](NC(=O)[C@H](CCC(=O)C=[N+]=[N-])NC(=O)OCc1ccccc1)C(C)C |  |  | isolated mouse mitochondria | concentration not given |  | Ca2+ retention capacity | no effect |
| Cc1n[nH]c(C)c1CCCOc1cc(C(=O)NCCCCC(NC(=O)CN2CCN(CC(=O)[O-])CCN(CC(=O)[O-])CCN(CC(=O)[O-])CC2)C(=O)NCC2CCC(C(=O)NC(Cc3ccc4ccccc4c3)C(=O)NCCCCC(NC(=O)NC(CCC(=O)O)C(=O)O)C(=O)O)CC2)ccc1F.[177Lu+3] (stereo not drawn) |  |  | mice with 22Rv1 xenografts | 14.8 MBq, 21 days | relative to: control | tumour growth | inhibited |
| CN(C)[C@H]1C[C@@]23CC[C@@]4(O2)C(=CC[C@]2(C)[C@@H](c5ccc6ccncc6c5)CC[C@H]24)C=C3[C@@H](O)[C@@H]1O | Receptor-interacting serine/threonine-protein kinase 3 (RIPK3, Homo sapiens, UniProt Q9Y572) | ATP probe labelling, inhibitor, KiNativ profiling |  | 1 µM |  | inhibition | 5.3% |
| CN[C@@H]1C[C@H]2O[C@@](C)([C@@H]1OC)n1c3ccccc3c3c4c(c5c6ccccc6n2c5c31)C(=O)NC4 |  | annexin V flow cytometry | pancreatic islet cells, mouse | 1 µM, 24 h |  | early apoptotic cells | 34.6% |
| CC(C)C[C@@H]1NC(=O)[C@@H](Cc2c[nH]c3ccccc23)NC(=O)[C@H](CCCNC(=N)N)NC(=O)[C@@H](CCC(=O)O)NC(=O)[C@H](CCC(N)=O)NC(=O)[C@@H](CCC(=O)O)NC(=O)[C@H](CCCNC(=N)N)NC(=O)[C@@H](Cc2c[nH]c3ccccc23)NC1=O |  | Luminex, refers to: GM-CSF | LDLr-/- mice, Western diet, liver | dose not given, 4 weeks |  | cytokine level | 86 ± 37 pg/g tissue |
| CCc1nnc(-c2c(OC)cc(-c3cnc4cc(-c5cnn(C)c5)ccn34)cc2OC)o1 |  | histomorphometry | male C57BL/6J mouse, tibia | oral gavage, 10 mg/kg once daily, 3 wk |  | trabecular bone volume fraction | 15.2 ± 1.37% |
| COc1ccccc1-c1n[nH]c2nc(N[C@H]3CC[C@H](NS(=O)(=O)CC(C)C)CC3)ncc12 |  | bead binding, competition bead pull-down, refers to: LINJ.35.2780 | Leishmania donovani extract | 10 µM | relative to: vehicle | relative abundance | 1.08 |
| Cc1nc2cccc(OCC(C)(C)C(=O)NC(C)C)c2c(N)c1C(=O)[O-].[Na+] | Salmonella typhimurium |  | TA1537 | 2.0 mg per plate, with S9, preincubation |  | revertant colonies per plate | 12 ± 5 |
| O=c1n(CCNCCOS(=O)(=O)c2ccccc2)c(=O)n(S(=O)(=O)c2ccccc2)c(=O)n1S(=O)(=O)c1ccccc1 |  | DPPH scavenging |  | 62.5 µg/mL |  | inhibition | 46.7% |
| CCCCCC1=C(NCC)C(=O)C(C/C=C(\C)CCC=C(C)C)=C(O)C1=O |  | RNA-Seq, refers to: Irf7 mRNA | mice, AAV9-A53T α-synuclein lesion, lesioned striatum | oral, dose not given | relative to: vehicle-treated lesioned mice | log2 fold change | 2.12 |
| O=C(NCc1cc(F)cc(F)c1)[C@@]1(O)CCN(c2ccc3[nH]ccc3c2)C1=O |  |  | sample F PDX mouse | dose not given, RTV endpoint 500% |  | median survival time | > 80 days |
| C#CC(C)(C)C(=O)SCCOP1(=O)OCC2OC(n3cnc4c(N)ncnc43)CC2OP(=O)(OCCSC(=O)C(C)(C)C#C)OCC2OC(n3cnc4c(N)ncnc43)CC2O1 (stereo not drawn) |  |  | mouse CT26 tumour model | dose not given, 2160 h |  | tumour-free survivors resisting rechallenge | 100% |
| CSCC[C@H](NC(=O)[C@@H](NC(=O)[C@H](CCC(N)=O)NC(=O)[C@H](CO)NC(=O)[C@@H](N)C(C)C)[C@@H](C)O)C(=O)N[C@@H](CCCNC(=N)N)C(=O)N[C@@H](CCC(N)=O)C(=O)N[C@H](C(=O)N[C@@H](C)C(=O)N[C@H](C(=O)N1CCC[C@H]1C(=O)N[C@@H](CC(C)C)C(=O)N[C@@H](CC(C)C)C(=O)N[C@@H](Cc1c[nH]c2ccccc12)C(=O)N[C@@H](Cc1ccccc1)C(=O)N[C@@H](Cc1c[nH]c2ccccc12)C(=O)N[C@H](C(=O)NCC(=O)N[C@@H](CO)C(=O)N[C@@H](CC(C)C)C(=O)NCCOCCOCCOCCOCCOCCOCCOCCOCCOCCOCCOCCOCCC(=O)N[C@@H](CS)C(N)=O)[C@@H](C)O)C(C)C)[C@@H](C)O |  | phage binding | NSCLC cell line panel | selectivity at least 20 |  | number of cell lines | 8 |
| O=S(=O)(N[C@H]1CCO[C@@H](C2c3ccccc3CCc3ccccc32)C1)c1ccc(OC(F)(F)F)cc1 |  |  | mouse, orthotopic D425 medulloblastoma | oral gavage, 75 mg/kg twice daily |  | median survival | 14 days |

Excerpt of the above:
| Structure (SMILES) | target or system | test | system | conditions | scale | quantity | result |
| --- | --- | --- | --- | --- | --- | --- | --- |
| CN(C)[C@H]1C[C@@]23CC[C@@]4(O2)C(=CC[C@]2(C)[C@@H](c5ccc6ccncc6c5)CC[C@H]24)C=C3[C@@H](O)[C@@H]1O | Receptor-interacting serine/threonine-protein kinase 3 (RIPK3, Homo sapiens, UniProt Q9Y572) | ATP probe labelling, inhibitor, KiNativ profiling |  | 1 µM |  | inhibition | 5.3% |
| CC(C)(C)C(=O)OCOP(=O)(OCOC(=O)C(C)(C)C)C1CCCN(O)C1=O (stereo not drawn) | HOP-62 |  |  |  |  | log TGI | -5.18 log M |
| CCc1nnc(-c2c(OC)cc(-c3cnc4cc(-c5cnn(C)c5)ccn34)cc2OC)o1 |  | histomorphometry | male C57BL/6J mouse, tibia | oral gavage, 10 mg/kg once daily, 3 wk |  | trabecular bone volume fraction | 15.2 ± 1.37% |
